{"data": "Experimental data gathered from unrelated publications", "note": "Every numbered part comes from another study and shows a few of its results, in no order. Changes are numbered by the printed parent chain."}
{"data": "Set 1", "target": "CCNB2, cyclin fold, Cln2 fusion (human)", "technique": "yeast growth competition, sequencing", "medium": "yeast", "notes": "strong parent motif", "reference": "not given", "reading": "higher = stronger binding", "parent": "BRCA2 docking peptide (human); PSIKRNLLNEFDR; partner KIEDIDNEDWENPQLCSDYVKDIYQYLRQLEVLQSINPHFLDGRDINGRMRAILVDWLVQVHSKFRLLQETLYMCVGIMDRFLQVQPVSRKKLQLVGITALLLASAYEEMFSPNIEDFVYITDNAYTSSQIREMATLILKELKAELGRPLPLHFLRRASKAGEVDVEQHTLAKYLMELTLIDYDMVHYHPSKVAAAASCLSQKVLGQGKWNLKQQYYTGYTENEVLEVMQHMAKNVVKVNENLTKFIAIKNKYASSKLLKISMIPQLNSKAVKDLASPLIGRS"}
{"Change": "E10W", "normalised enrichment score": 0.237}
{"Change": "N9A", "normalised enrichment score": 4.26}
{"Change": "N6Q", "normalised enrichment score": 1.25}
{"Change": "E10K", "normalised enrichment score": 0.175}
{"Change": "R13N", "normalised enrichment score": 4}
{"Change": "S2T", "normalised enrichment score": 3.31}
{"Change": "F11S", "normalised enrichment score": -0.498}
{"Change": "K4A", "normalised enrichment score": 3.3}
{"Change": "R13A", "normalised enrichment score": 4.54}
{"data": "Set 2", "target": "Sox-I, HMG box (Salpingoeca helianthica)", "technique": "Spec-seq", "molecule type": "double-stranded DNA, one strand shown", "medium": "in vitro", "tested at": "not given", "notes": "whole probe, mean of replicates", "reference": "not given", "reading": "lower = stronger binding", "constant ends, left off below": "GAGTCGTCTCGTCAGCAC … CCGTAGAGCACTCAGGTC", "Construct (chain)": "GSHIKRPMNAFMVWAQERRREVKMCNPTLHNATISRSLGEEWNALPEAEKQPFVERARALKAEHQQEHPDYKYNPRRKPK"}
{"Strand": "CATACCG", "relative binding energy [ln ratio]": 0.556}
{"Strand": "CATGGAG", "relative binding energy [ln ratio]": 0.95}
{"Strand": "CATAGGT", "relative binding energy [ln ratio]": 0.387}
{"Strand": "CATGCGT", "relative binding energy [ln ratio]": 1.21}
{"Strand": "CATACTG", "relative binding energy [ln ratio]": 0.272}
{"Strand": "TTACGTT", "relative binding energy [ln ratio]": 0.872}
{"Strand": "CATTTAC", "relative binding energy [ln ratio]": 0.591}
{"Strand": "CATCGAG", "relative binding energy [ln ratio]": 0.955}
{"Strand": "TTCTGTT", "relative binding energy [ln ratio]": -0.734}
{"Strand": "TCCGGTT", "relative binding energy [ln ratio]": 0.729}
{"Strand": "CATAATA", "relative binding energy [ln ratio]": -0.851}
{"data": "Set 3", "target": "Interferon regulatory factor 5, full length, phosphomimetic (IRF5, Homo sapiens, UniProt Q13568-2, residues 1-514, K96S/S451D/S453D/S456D/S462D)", "technique": "protein-binding microarray", "molecule type": "double-stranded DNA, one strand shown", "medium": "in vitro", "tested at": "250 nM", "notes": "60-bp whole probe", "added": "salmon DNA 0.4 mg/ml", "reference": "random background probes", "reading": "higher = stronger binding", "constant ends, left off below": "GCCTAGCAC … GTCTTGATTCGCTTGACGCTGCTG"}
{"Strand": "GACGGTTTCTGTATCGGGACGTGCTAG", "log fluorescence [z-score]": 4.51}
{"Strand": "GACGATTCCAGTATCGAGACGTGCTAG", "log fluorescence [z-score]": 2.04}
{"Strand": "TCACATATAATTTTGTCATCGTGCTAG", "log fluorescence [z-score]": 0.716}
{"Strand": "TCATTTTTCAAGAAACAGACTGTGCTA", "log fluorescence [z-score]": 1.07}
{"Strand": "TCATCTCTACTTGTGTCACTGTGCTAG", "log fluorescence [z-score]": 0.488}
{"Strand": "CCAGGGCTGCCAGCCTCCTCGTGCTAG", "log fluorescence [z-score]": -0.999}
{"Strand": "AACGGTATCCTTCTCCTGACGTGCTAG", "log fluorescence [z-score]": 0.22}
{"Strand": "AGACCATCCTGTATGGATGTGTGCTAG", "log fluorescence [z-score]": -0.575}
{"Strand": "TTAGATCTCAGTCTCAATTAGTGCTAG", "log fluorescence [z-score]": 0.364}
{"Strand": "TTAGGACTGGACGATCGGTTAGTGCTA", "log fluorescence [z-score]": 0.0699}
{"Strand": "TCATGTCTGGGCTTTTTCACTGTGCTA", "log fluorescence [z-score]": 0.148}
{"Strand": "GACGGTTCCGGTTGCGGGACGTGCTAG", "log fluorescence [z-score]": 0.825}
{"Strand": "TTAGATTTCAGTCTCCATTAGTGCTAG", "log fluorescence [z-score]": 1.9}
{"Strand": "GACGGTTTCGGCTTCGGGACGTGCTAG", "log fluorescence [z-score]": 6.78}
{"Strand": "GACGAACAGGGGTTTCGAGACGTGCTA", "log fluorescence [z-score]": 1.27}
{"data": "Other studies, line by line"}
{"Molecule": "PhoQ, residues 284 288 289 292 302 303 TLMATV", "target": "PhoP, residues 12 14 15 18 19 NHTVL (Escherichia coli, UniProt P23836)", "test": "Sort-seq, item: YFP reporter", "system": "E. coli", "conditions": "PhoQ-PhoP variant library, added: 10 µM Mg2+", "how to read": "reference: high Mg2+ state, higher = stronger signaling", "endpoint": "fold induction", "result": 5.77}
{"note": "For quick reference, copied from above (set 1):"}
{"Change": "E10K", "normalised enrichment score": 0.175}
{"Change": "S2T", "normalised enrichment score": 3.31}
{"Change": "F11S", "normalised enrichment score": -0.498}
{"Change": "N9A", "normalised enrichment score": 4.26}
